Published values of several laboratories.
Every numbered part comes from another study and shows a few of its results, in no order. “And” joins repeats or separate records; there may be more than shown.
Chain of UniProt P29322 (whole entry, looked up): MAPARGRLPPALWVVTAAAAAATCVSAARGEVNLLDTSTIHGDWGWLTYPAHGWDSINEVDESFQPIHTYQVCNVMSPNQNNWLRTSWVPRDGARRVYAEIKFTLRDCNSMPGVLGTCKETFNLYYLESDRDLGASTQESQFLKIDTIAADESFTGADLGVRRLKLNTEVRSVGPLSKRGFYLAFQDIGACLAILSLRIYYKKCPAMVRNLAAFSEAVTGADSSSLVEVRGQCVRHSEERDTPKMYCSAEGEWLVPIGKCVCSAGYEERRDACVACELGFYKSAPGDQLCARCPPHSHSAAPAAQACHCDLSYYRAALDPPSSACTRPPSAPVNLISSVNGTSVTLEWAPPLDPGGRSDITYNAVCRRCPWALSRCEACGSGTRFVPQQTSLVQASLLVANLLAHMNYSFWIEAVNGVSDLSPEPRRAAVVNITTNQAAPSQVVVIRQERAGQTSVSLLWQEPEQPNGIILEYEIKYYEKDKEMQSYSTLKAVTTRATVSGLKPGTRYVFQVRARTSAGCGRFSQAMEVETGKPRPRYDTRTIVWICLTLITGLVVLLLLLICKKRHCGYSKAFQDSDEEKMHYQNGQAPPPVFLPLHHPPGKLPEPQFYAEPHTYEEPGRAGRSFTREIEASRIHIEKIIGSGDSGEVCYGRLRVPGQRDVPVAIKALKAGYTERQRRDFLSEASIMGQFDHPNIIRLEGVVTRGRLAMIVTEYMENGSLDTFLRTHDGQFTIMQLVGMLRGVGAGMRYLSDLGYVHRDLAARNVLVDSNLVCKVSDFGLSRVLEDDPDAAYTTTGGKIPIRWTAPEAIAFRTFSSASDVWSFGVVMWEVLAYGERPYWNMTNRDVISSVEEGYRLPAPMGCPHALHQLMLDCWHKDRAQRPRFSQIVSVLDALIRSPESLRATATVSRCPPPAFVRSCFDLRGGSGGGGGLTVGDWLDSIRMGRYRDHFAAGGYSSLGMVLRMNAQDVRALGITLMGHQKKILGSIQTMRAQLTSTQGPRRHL
Chain of UniProt P80192 (whole entry, looked up): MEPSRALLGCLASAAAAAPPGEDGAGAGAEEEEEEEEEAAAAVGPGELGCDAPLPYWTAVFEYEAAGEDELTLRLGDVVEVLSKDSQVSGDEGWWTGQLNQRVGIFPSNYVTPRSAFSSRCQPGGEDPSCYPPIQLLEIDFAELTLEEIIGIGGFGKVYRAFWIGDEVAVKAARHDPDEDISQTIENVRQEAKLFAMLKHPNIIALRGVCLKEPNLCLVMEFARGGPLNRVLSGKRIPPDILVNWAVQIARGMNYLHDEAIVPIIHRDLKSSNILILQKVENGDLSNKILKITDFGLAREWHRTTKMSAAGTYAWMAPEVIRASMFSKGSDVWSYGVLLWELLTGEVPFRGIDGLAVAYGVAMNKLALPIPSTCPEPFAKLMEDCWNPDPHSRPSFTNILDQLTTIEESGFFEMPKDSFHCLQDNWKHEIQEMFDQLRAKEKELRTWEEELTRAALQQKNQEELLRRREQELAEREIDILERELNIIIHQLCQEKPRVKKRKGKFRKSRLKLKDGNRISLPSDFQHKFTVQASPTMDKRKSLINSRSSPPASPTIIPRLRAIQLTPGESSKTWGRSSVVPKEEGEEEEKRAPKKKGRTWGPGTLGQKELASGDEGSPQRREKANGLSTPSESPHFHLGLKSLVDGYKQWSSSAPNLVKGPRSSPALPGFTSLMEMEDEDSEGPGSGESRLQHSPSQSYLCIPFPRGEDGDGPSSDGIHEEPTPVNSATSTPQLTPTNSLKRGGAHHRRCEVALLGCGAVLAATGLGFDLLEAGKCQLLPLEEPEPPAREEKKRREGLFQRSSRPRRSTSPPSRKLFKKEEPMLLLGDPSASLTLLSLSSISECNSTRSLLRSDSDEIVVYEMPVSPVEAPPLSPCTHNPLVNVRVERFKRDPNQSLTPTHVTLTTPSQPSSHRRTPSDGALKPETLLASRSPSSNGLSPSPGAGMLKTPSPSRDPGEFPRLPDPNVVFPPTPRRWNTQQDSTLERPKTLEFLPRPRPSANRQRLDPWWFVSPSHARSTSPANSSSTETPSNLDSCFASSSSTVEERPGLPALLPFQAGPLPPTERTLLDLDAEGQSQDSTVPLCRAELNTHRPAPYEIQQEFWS
Chain of UniProt P51812 (whole entry, looked up): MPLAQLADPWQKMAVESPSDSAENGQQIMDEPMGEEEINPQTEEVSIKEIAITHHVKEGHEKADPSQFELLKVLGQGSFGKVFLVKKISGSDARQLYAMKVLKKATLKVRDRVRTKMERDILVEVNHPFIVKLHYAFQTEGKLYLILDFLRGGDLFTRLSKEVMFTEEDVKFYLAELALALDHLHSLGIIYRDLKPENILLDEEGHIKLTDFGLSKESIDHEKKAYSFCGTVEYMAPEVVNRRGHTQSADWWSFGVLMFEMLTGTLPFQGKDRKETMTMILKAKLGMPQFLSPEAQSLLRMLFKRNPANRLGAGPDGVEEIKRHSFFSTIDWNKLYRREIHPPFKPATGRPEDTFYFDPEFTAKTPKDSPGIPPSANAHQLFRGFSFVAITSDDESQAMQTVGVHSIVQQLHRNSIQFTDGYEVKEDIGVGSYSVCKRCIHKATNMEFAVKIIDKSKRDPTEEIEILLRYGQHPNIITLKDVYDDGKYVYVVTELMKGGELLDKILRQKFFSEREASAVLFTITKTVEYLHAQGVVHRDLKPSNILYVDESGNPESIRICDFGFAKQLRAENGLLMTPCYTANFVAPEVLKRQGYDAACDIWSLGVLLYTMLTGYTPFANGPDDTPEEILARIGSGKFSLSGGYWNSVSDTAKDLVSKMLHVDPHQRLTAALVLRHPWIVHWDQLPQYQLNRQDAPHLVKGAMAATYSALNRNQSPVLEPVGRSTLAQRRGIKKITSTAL
Chain of UniProt Q16832 (whole entry, looked up): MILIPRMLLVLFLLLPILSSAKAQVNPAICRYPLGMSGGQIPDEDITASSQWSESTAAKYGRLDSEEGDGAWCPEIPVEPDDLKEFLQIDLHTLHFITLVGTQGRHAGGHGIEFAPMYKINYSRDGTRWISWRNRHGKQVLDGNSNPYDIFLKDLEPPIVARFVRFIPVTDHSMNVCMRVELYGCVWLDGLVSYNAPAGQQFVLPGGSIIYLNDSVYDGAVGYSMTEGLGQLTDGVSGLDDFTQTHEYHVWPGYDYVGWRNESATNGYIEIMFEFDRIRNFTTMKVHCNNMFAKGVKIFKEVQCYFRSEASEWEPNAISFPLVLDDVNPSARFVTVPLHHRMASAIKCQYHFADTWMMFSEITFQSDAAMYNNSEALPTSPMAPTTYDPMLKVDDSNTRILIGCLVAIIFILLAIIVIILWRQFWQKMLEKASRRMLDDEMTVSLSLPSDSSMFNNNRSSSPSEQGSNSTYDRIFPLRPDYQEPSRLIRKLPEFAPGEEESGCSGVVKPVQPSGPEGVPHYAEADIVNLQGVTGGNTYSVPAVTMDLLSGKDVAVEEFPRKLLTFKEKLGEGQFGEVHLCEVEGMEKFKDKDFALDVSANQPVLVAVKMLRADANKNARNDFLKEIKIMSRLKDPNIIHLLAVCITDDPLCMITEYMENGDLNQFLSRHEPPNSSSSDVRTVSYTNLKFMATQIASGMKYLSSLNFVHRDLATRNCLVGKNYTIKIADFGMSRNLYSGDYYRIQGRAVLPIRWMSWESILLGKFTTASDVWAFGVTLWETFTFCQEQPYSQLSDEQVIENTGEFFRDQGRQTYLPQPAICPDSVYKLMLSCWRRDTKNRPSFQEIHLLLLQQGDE
Chain of UniProt P10721 (whole entry, unmodified, looked up): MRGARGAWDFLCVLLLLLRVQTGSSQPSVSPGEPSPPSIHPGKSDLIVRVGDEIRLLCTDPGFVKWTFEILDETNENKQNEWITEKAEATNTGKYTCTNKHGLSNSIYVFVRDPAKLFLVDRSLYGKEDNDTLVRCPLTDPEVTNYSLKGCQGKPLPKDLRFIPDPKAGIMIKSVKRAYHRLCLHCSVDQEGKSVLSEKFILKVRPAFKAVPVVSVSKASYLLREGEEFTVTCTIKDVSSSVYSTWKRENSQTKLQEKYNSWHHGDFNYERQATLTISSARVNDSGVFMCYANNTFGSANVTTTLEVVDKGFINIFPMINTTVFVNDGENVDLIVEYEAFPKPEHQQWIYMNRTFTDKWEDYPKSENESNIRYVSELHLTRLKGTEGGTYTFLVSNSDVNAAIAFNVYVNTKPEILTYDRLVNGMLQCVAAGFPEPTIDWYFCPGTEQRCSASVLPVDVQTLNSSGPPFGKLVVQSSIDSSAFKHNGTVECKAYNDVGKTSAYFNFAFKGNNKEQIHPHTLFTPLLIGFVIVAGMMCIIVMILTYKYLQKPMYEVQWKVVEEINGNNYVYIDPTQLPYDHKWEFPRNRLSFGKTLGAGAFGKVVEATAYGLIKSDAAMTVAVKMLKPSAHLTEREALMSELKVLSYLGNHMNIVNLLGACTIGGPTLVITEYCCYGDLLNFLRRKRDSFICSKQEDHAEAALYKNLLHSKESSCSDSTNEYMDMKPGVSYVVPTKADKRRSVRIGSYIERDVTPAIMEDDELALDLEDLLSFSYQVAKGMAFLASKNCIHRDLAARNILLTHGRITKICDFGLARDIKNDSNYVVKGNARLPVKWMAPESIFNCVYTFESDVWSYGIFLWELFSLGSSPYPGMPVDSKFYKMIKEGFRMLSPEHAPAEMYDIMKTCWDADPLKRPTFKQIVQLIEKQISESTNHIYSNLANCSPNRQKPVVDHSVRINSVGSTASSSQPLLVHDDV

Study 1
Compound: COc1ccc2[nH]c3c4[nH]c5ccc(OC)cc5c4c4c(c3c2c1)C(=O)NC4=O
Technique: competitive binding panel
Concentration: 1 µM
Baseline: vehicle
The remaining binding was 99% (Serine/threonine-protein kinase STK11 (STK11, Homo sapiens, UniProt Q15831); measured: LKB1).
For Macrophage colony-stimulating factor 1 receptor (CSF1R, Homo sapiens, UniProt P07333): remaining binding read 58%.
The remaining binding was 68% (Protein-tyrosine kinase 2-beta (PTK2B, Homo sapiens, UniProt Q14289); measured: PYK2).

Study 2
Cell line: mouse MPNST tumor cells
Technique: high-content nuclear imaging
Measured: cell number
Concentration: 10 µM
Time: 12 h
Notes: mean of 2 replicates
Baseline: plate mean
Reading: higher = more cells
With CCCCOCCOc1nc(-c2ccc(C(=O)O)c(F)c2)sc1C the nuclei count was -0.26 z-score.
CO[C@H]1/C=C/O[C@@]2(C)Oc3c(C)c(O)c4c(O)c(c5c(nc6cc(C)ccn65)c4c3C2=O)NC(=O)/C(C)=C\C=C\[C@H](C)[C@H](O)[C@@H](C)[C@@H](O)[C@@H](C)[C@H](OC(C)=O)[C@@H]1C has a nuclei count of 0.153 z-score.
For CCn1c(=O)n(C2CCCN(c3nccc(-c4cc5ccccc5o4)n3)C2)c2ccccc21 (centres unmarked), the nuclei count was 4.06 z-score.
With CNCCN1CCC(OCc2ccccc2)CC1 the nuclei count was 2.02 z-score.
With N[C@H](C(=O)O)[C@H](OCc1cccc(NC(=O)c2ccc(C(F)(F)F)cc2)c1)C(=O)O the nuclei count was 1.41 z-score.

Study 3
Structure (SMILES): COc1ccc2c(c1)O[C@H](c1ccc(OC)c(OC)c1)C[C@@H]2NC(=O)C1(c2ccc3c(c2)OC(F)(F)O3)CC1
Effect on: cell-free assay
Technique: competition with immobilised ligand
Concentration: 1 µM
Cyclin-dependent kinase-like 2 (CDKL2, Homo sapiens, UniProt Q92772) — remaining binding: 100%.
It gave 91% for remaining binding (Ribosomal protein S6 kinase alpha-5, N-terminal kinase domain (RPS6KA5, Homo sapiens, UniProt O75582)).
Dual specificity mitogen-activated protein kinase kinase 5 (MAP2K5, Homo sapiens, UniProt Q13163) — remaining binding: 76%.
For Serine/threonine-protein kinase PLK1 (PLK1, Homo sapiens, UniProt P53350): remaining binding read 83%.
It gave 89% for remaining binding (Serine/threonine-protein kinase PLK4 (PLK4, Homo sapiens, UniProt O00444)).
The remaining binding was 91% (Ribosomal protein S6 kinase beta-1 (RPS6KB1, Homo sapiens, UniProt P23443)).
Ribosomal protein S6 kinase alpha-3, N-terminal kinase domain (RPS6KA3, Homo sapiens, UniProt P51812) — remaining binding: 74%.
The remaining binding was 93% (Mitogen-activated protein kinase kinase kinase 9 (MAP3K9, Homo sapiens, UniProt P80192)).
It gave 93% for remaining binding (Tyrosine-protein kinase ABL1, non-phosphorylated (ABL1, Homo sapiens, UniProt P00519, T315I)).
It gave 100% for remaining binding (Ephrin type-A receptor 8 (EPHA8, Homo sapiens, UniProt P29322)).
The remaining binding was 85% (Non-receptor tyrosine-protein kinase TYK2, JH1 (TYK2, Homo sapiens, UniProt P29597)).
It gave 100% for remaining binding (Mast/stem cell growth factor receptor Kit (KIT, Homo sapiens, UniProt P10721, V559D/V654A)).
The remaining binding was 92% (Receptor-type tyrosine-protein kinase FLT3 (FLT3, Homo sapiens, UniProt P36888, D835V)).
The remaining binding was 100% (Phosphatidylinositol 4,5-bisphosphate 3-kinase catalytic subunit alpha isoform (PIK3CA, Homo sapiens, UniProt P42336, Q546K)).
For Discoidin domain-containing receptor 2 (DDR2, Homo sapiens, UniProt Q16832): remaining binding read 94%.

Study 4
SMILES: CC(=O)N[C@@H](Cc1c[nH]c2ccccc12)C(=O)N[C@@H](CCC(=O)C=[N+]=[N-])C(=O)OC(C)C
Dose: dose not given
Baseline: vehicle
It gave 1.14 for “log2 fold change” (measured: dehydroascorbate; mouse, EL4 tumour-bearing, EL4 tumour).
It gave 0.619 for “log2 fold change” (measured: 2'-AMP; mouse, EL4 tumour-bearing, EL4 tumour).
It gave -1.1 for “log2 fold change” (measured: 5-methylcytidine; mouse, EL4 tumour-bearing, EL4 tumour).
For measured: 1-methylnicotinamide; mouse, EL4 tumour-bearing, EL4 tumour: “log2 fold change” read 0.669.
The “log2 fold change” was -0.782 (measured: N-formylmethionine; mouse, EL4 tumour-bearing, EL4 tumour).
For measured: isovalerylcarnitine; mouse, EL4 tumour, tumour: “log2 fold change” read -0.454.
The “log2 fold change” was -0.0606 (measured: alpha-hydroxyisovalerate; mouse, EL4 tumour-bearing, EL4 tumour).

Mixed results
Organism: Leishmania donovani
Effect on: parasite viability
Technique: resazurin
Strain: DD8
Matrix: promastigotes
Concentration: 66.66 µM
With CCOc1ccc(Nc2c3c(nc4ccccc24)CCC3)cc1 the normalised inhibition was 100%.
With c1ccc(Oc2ccc(Nc3c4c(nc5ccccc35)CCC4)cc2)cc1 the normalised inhibition was 100% and 99%.

Excerpt of the above (study 3):
Cyclin-dependent kinase-like 2 (CDKL2, Homo sapiens, UniProt Q92772) — remaining binding: 100%.
The remaining binding was 85% (Non-receptor tyrosine-protein kinase TYK2, JH1 (TYK2, Homo sapiens, UniProt P29597)).
